Experimental data pooled from the literature.
Each line is one published result; not all experiments were run side by side. Numbers after ± are the reported error.
UniProt P17812, sequence (whole entry, looked up): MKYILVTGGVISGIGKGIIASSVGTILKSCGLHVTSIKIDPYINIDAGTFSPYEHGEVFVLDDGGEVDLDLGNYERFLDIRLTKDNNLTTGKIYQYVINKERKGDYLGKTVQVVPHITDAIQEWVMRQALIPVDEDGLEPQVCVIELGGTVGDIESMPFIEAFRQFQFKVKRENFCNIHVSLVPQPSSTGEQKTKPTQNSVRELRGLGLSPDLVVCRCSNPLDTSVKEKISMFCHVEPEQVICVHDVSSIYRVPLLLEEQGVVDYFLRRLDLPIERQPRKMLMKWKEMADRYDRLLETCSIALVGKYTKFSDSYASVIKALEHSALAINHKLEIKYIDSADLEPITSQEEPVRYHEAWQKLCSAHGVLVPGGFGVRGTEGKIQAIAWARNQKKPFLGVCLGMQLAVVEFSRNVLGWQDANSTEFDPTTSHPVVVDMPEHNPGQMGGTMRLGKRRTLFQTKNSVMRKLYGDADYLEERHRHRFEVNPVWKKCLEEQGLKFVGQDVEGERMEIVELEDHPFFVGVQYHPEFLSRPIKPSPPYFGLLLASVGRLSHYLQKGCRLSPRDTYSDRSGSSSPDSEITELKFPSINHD
UniProt P37288, sequence (whole entry, looked up): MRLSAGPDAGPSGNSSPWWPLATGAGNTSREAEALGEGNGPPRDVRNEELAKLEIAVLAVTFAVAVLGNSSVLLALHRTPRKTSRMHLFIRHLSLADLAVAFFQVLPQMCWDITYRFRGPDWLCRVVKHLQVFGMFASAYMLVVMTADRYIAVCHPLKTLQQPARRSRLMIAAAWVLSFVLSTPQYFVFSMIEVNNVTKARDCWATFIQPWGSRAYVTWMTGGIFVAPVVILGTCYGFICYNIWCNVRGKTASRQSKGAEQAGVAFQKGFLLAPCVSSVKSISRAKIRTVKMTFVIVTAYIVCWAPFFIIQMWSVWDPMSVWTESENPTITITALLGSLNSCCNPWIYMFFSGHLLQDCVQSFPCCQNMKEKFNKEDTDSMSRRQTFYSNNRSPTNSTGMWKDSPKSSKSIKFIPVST

O=S(=O)(Nc1ccccc1)c1ccc(NC(=S)Nc2ccccc2)cc1 — result for “mean corpuscular volume”: 49 fL (mouse, female, blood; oral, 20 mg/kg daily, 14 days).
The AST of CC(C)[C@@H]1NC(=O)CNC(=O)[C@H](CC(N)=O)NC(=O)[C@H](CCCNC(=N)N)NC(=O)[C@H](Cc2ccc(O)cc2)NC(=O)[C@H](C(C)C)NC(=O)[C@@H](NC(=O)[C@@H](NC(=O)[C@H](CC(N)=O)NC(=O)[C@H](Cc2c[nH]c3ccccc23)NC(=O)[C@H](C)NC(=O)[C@H](Cc2ccccc2)NC(=O)CN)C(C)C)CSSC[C@@H](C(=O)N[C@@H](Cc2cnc[nH]2)C(=O)N[C@@H](CCCNC(=N)N)C(=O)N[C@@H](CCCNC(=N)N)C(=O)N[C@@H](C)C(=O)N[C@@H](CC(N)=O)C(N)=O)NC(=O)[C@H](C(C)C)NC(=O)[C@H](CCCNC(=N)N)NC1=O is reported as 25.9 ± 1.01 IU/L (ICR mice, serum; intraperitoneal, 10 mg/kg, day 5).
COc1cc(Nc2ncc(F)c(Nc3ccc4c(n3)NC(=O)C(C)(C)O4)n2)cc(OC)c1OC has an IC50 of over 10 µM (AVPR1A (Homo sapiens, UniProt P37288)).
The tissue uptake of C[C@@H]1NC(=O)[C@H](CCCCNC(=O)CO/N=C/C(=O)NCCCC[C@@H]2NC(=O)[C@@H](Cc3ccccc3)NC(=O)[C@H](CC(=O)O)NC(=O)CNC(=O)[C@H](CCCNC(=N)N)NC2=O)NC(=O)CNC(=O)[C@@H]2CCCN2C(=O)[C@H](CCCCNC(=O)CO/N=C/C(=O)NCCCC[C@@H]2NC(=O)[C@@H](Cc3ccccc3)NC(=O)[C@H](CC(=O)O)NC(=O)CNC(=O)[C@H](CCCNC(=N)N)NC2=O)NC(=O)[C@H](CCCCNC(=O)CCNC(=O)CCNC(=O)CCNC(=O)[C@H](CCCCN)NC(=O)[C@H](Cc2ccccc2)NC(=O)CNC(=O)CN2CCCNCCNCCCNCC2)NC(=O)[C@H](CCCCNC(=O)CO/N=C/C(=O)NCCCC[C@@H]2NC(=O)[C@@H](Cc3ccccc3)NC(=O)[C@H](CC(=O)O)NC(=O)CNC(=O)[C@H](CCCNC(=N)N)NC2=O)NC(=O)CNC(=O)[C@@H]2CCCN2C(=O)[C@H](CCCCNC(=O)CO/N=C/C(=O)NCCCC[C@@H]2NC(=O)[C@@H](Cc3ccccc3)NC(=O)[C@H](CC(=O)O)NC(=O)CNC(=O)[C@H](CCCNC(=N)N)NC2=O)NC1=O [copper-64 labelled] is reported as 12.3 ± 0.85 %ID/g (normal mice, kidney; intravenous, 0.74 MBq, 24 h post-injection).
CN(C(=O)n1cnc(-c2ccc[n+]([O-])c2)c1)C1CCCCC1 gave a concentration of 14.4 ± 1 ng/g (Wistar rat, pons; oral, 10 mg/kg, 24 h, single dose).
Cl.Cn1c(=O)n(CCCCN2CCC3(CC2)OCc2ccccc23)c2ccccc21: “elimination rate constant” 5.28e-05 s⁻¹ (male Sprague-Dawley rat, plasma; intravenous, 10 mg/kg).
COc1cc2c(Oc3ccc4[nH]c(C)cc4c3F)ccnc2cc1OCC1(N)CC1: “grade 3 Hematochezia” 0% (paediatric recurrent refractory sarcoma; 10 mg).
CCNCCCNC/C=C\CNCCCNCC — result for “drug-related mucosal inflammation”: 26.1% (human, advanced solid tumours; intravenous, dose not given; baseline: patients).
CC(=O)NCC(=O)NCC(=O)N[C@H](C(=O)N[C@@H](Cc1ccc(O)cc1)C(=O)N[C@@H](CO)C(=O)N[C@H]1CSSC[C@@H](C(=O)N[C@@H](CCCNC(=N)N)C(=O)N2CCC[C@H]2C(=O)N[C@@H](CCC(N)=O)C(=O)N[C@@H](CCCNC(=N)N)C(=O)NCC(=O)NCCC(=O)N[C@@H](CCCCNC(=O)CN(CC(=O)NCCCC[C@H](NC(=O)CCNC(=O)CNC(=O)[C@H](CCCNC(=N)N)NC(=O)[C@H](CCC(N)=O)NC(=O)[C@@H]2CCCN2C(=O)[C@H](CCCNC(=N)N)NC(=O)[C@@H]2CSSC[C@H](NC(=O)[C@H](CO)NC(=O)[C@H](Cc3ccc(O)cc3)NC(=O)[C@@H](NC(=O)CNC(=O)CNC(C)=O)[C@@H](C)O)C(=O)N[C@@H](Cc3c[nH]cn3)C(=O)N[C@@H](Cc3ccccc3)C(=O)NCC(=O)N[C@@H](C)C(=O)N[C@@H](CC(C)C)C(=O)N[C@@H]([C@@H](C)O)C(=O)N[C@@H](Cc3c[nH]c4ccccc34)C(=O)N[C@@H](C(C)C)C(=O)N2)C(N)=O)C(=O)CCN)C(N)=O)NC(=O)[C@H](C(C)C)NC(=O)[C@H](Cc2c[nH]c3ccccc23)NC(=O)[C@H]([C@@H](C)O)NC(=O)[C@H](CC(C)C)NC(=O)[C@H](C)NC(=O)CNC(=O)[C@H](Cc2ccccc2)NC(=O)[C@H](Cc2c[nH]cn2)NC1=O)[C@@H](C)O: serum concentration “not detected” (MSD immunoassay; BALB/c mice, healthy female, serum; subcutaneous, 0.08 mg/kg, 8 h, LLOQ 2.0 ng/mL).
With C=C(CN(C(=O)c1c(C(F)F)nn(C)c1F)C1CC1)c1ccc(Cl)cc1Cl the mortality was 30% (static acute toxicity test; zebrafish (Brachydanio rerio); 1.20 mg a.i./L, 24 h).
COc1ncccc1-c1cnn2ccc(N3CCN(C(=O)OC(C)C)CC3)nc12 has a drug concentration of 5.6 µM (mouse nerve ligation model, brain; oral, 10 mg/kg, 120 min after last dose, repeat dosing day 4).
CC(C)(c1ccc(O)cc1)c1ccc(O)cc1: “dose fraction in permeate” 19% (ultrafiltration; cow milk whey; 2000 nM nominal in whole milk).
C[C@@H](O)[C@H](NC(=O)[C@@H]1CSSC[C@H](NC(=O)[C@@H](Cc2ccccc2)NC(=O)CN2CCN(CC(=O)[O-])CCN(CC(=O)[O-])CCN(CC(=O)[O-])CC2)C(=O)N[C@@H](Cc2ccc(O)cc2)C(=O)N[C@H](Cc2c[nH]c3ccccc23)C(=O)N[C@@H](CCCCN)C(=O)N[C@@H]([C@@H](C)O)C(=O)N1)C(=O)O.[177Lu+3] has a retention of 33.1% (MEC1 treated with 200 µM zebularine; gamma counter; 120 min efflux after 2 h loading).
COc1cc(CCC[P+](c2ccccc2)(c2ccccc2)c2ccccc2)c(OC)c2c1OCO2.[I-] gave a GI50 of -5.59 log M (SN12C; SRB).
Under “drug-related adverse events”, Cn1nc(NS(C)(=O)=O)c2c(Cl)ccc(-n3c([C@H](Cc4cc(F)cc(F)c4)NC(=O)Cn4nc(C(F)F)c5c4C(F)(F)[C@@H]4C[C@H]54)nc4nc(OCCC(F)(F)F)ccc4c3=O)c21 is recorded as 0% (measured: total bile acids increased; human; 25 mg, powder in bottle).
The tissue uptake of CC[C@H](C)[C@H](NC(=O)[C@H](Cc1ccccc1)NC(=O)[C@H](CCC(=O)O)NC(=O)[C@H](CCCNC(=N)N)NC(=O)[C@H](C)NC(=O)[C@H](C)NC(=O)[C@H](CCC(N)=O)NC(=O)[C@H](CCC(=O)O)NC(=O)[C@H](CCC(=O)O)NC(=O)[C@H](CC(C)C)NC(=O)[C@H](Cc1ccc(O)cc1)NC(=O)[C@H](CO)NC(=O)[C@H](CO)NC(=O)[C@@H](NC(=O)[C@H](CC(=O)O)NC(=O)[C@H](CO)NC(=O)[C@@H](NC(=O)[C@H](Cc1ccccc1)NC(=O)[C@@H](NC(=O)CNC(=O)[C@H](CCC(=O)O)NC(=O)[C@H](C)NC(=O)CCc1c[nH]cn1)[C@@H](C)O)[C@@H](C)O)C(C)C)C(=O)N[C@@H](C)C(=O)N[C@@H](Cc1c[nH]c2ccccc12)C(=O)N[C@@H](CC(C)C)C(=O)N[C@H](C(=O)N[C@@H](CCCNC(=N)N)C(=O)NCC(=O)N[C@@H](CCCNC(=N)N)C(=O)N[C@@H](CCCCNC(=O)COCCOCCNC(=O)COCCOCCNC(=O)CC[C@H](NC(=O)CCCCCCCCCCCCCCCCC(=O)O)C(=O)O)C(=O)NCC(=O)NCC(=O)N[C@@H](CO)C(=O)N[C@@H](CCCCNc1c(NCCCCCN(O)C(=O)CCC(=O)NCCCCCN(O)C(=O)CCC(=O)NCCCCCN(O)C(C)=O)c(=O)c1=O)C(=O)O)C(C)C [zirconium-89 labelled] is reported as 0.04 %ID/g (gamma counting; rat, stomach-duodenum content; intravenous, 3 nmol/kg, 168 h).
O=C(Nc1cccc(B(O)O)c1)c1cccc(OCc2ccccc2)c1 has a membrane retention of 36.7% (PAMPA; 200 µM, 5 h, pH 7.4).
For CC[C@H](C)[C@@H]1NC(=O)[C@@H]2CCCN2C(=O)[C@H](CC(C)C)NC(=O)[C@H](CC(C)C)NC(=O)CNC(=O)[C@@H](NC(=O)[C@@H](NC(=O)[C@H](CC(=O)O)NC(=O)CNC(=O)[C@@H](NC(=O)[C@H](C)NC(=O)CNC(=O)[C@H](CCCCN)NC(=O)[C@H](CC(C)C)NC(=O)[C@H](CC(C)C)NC(=O)[C@H](CCCCN)NC(=O)CNC(=O)[C@@H](NC(=O)[C@@H](N)CC(C)C)C(C)C)C(C)C)C(C)C)CSSC[C@@H](C(=O)O)NC1=O, “log2 fold change” read -1.58 (RNA-seq, measured: Nfil3; mouse, traumatic brain injury model, frontal cortex and hippocampus; dose not given; baseline: TBI alone).
With Cc1ncnc2c1ccn2[C@@H]1C[C@H](Oc2cc(C(F)F)c(F)c3c2CNCC3)[C@@H](O)[C@H]1O the Dysgeusia incidence was 9% (patients; dose not given, any grade; baseline: patients).
The inhibition of COc1ccc(N2C(=O)N(c3c(C)cccc3Cl)Cc3cnc(Nc4ccc(C5CCN(C)CC5)cc4OC)nc32)nc1 is reported as 25% (FLT3 (Homo sapiens, UniProt P36888); kinase activity; 0.5 µM).
C[C@H]1CN(c2n[nH]c3nc(N[C@H]4CC[C@H](NS(=O)(=O)CCC(F)(F)F)CC4)ncc23)CCO1 gave a remaining binding of 1.34 (CTP synthase 1 (Homo sapiens, UniProt P17812); Kinobeads competition, measured: CTPS; 0.8 µM, unit not given; baseline: vehicle).
